Results of several laboratories.
Protocols differ between the studies behind these lines. “And” joins repeats or separate records; there may be more than shown. ± gives the spread as reported.

`CN(C(=O)C(C)(C)c1cc(C(F)(F)F)cc(C(F)(F)F)c1)c1cnc(N2C[C@H]3COC(O)CN3C[C@H]2CO)cc1-c1ccc(F)cc1CO` (stereo partly shown) gave an AUC extrapolated of 4.67% (human, plasma; oral, 120 mg, geometric mean).
`CCCCCCCCCCCCCCCOC(=O)/C=C/c1ccc(O)cc1` has a hemolysis of 0.45% (red blood cells; concentration not given; baseline: Triton X-100).
With `COCC1CN(C2CCN(c3cc(OC)c(Nc4ncc(Br)c(Nc5ccc6c(c5P(C)(C)=O)OCCO6)n4)cc3C)CC2)C1` the adverse events was 0% (first-in-human trial; human; oral, 30 mg once daily; treatment-related leading to dose suspension).
With `CCCC[C@H](NC(=O)CCCCCCCNC(=O)CN1CCN(CC(=O)O)CCN(CC(=O)O)CC1)C(=O)N[C@H]1CC(=O)NCCCC[C@@H](C(N)=O)NC(=O)[C@H](Cc2c[nH]c3ccccc23)NC(=O)[C@H](CCCNC(=N)N)NC(=O)[C@@H](Cc2ccccc2)NC(=O)[C@H](Cc2c[nH]cn2)NC1=O` [fluorine-18 labelled] the tissue uptake was 0.46 ± 0.68 %ID/g (C57 mice B16-F10 melanoma, muscle; intravenous, 0.37 MBq, 2 h).
`CNC(=O)C1CCCN(C(=O)C2CC3CCC2N3C(=O)[C@@H]2C[C@@H](O)CN2C(=O)NCc2cccc(Cl)c2F)C1` (mixture of isomers) gave an intrinsic clearance of 6 µL/min/mg (dog liver microsomes).
For `CC(C)C[C@H](NC(=O)[C@H](CCCNC(=N)N)NC(=O)[C@H](Cc1ccccc1)NC(=O)[C@H](Cc1ccccc1)NC(=O)[C@@H](NC(=O)[C@H](COP(=O)(O)O)NC(=O)[C@@H](N)COP(=O)(O)O)[C@@H](C)O)C(=O)N[C@@H](Cc1ccccc1)C(=O)N[C@@H](CC(N)=O)C(=O)N[C@@H](CCCNC(=N)N)C(=O)N[C@@H](C)C(=O)N[C@@H](CCCCN)C(=O)N[C@@H](CCCNC(=N)N)C(=O)N[C@@H](Cc1c[nH]cn1)C(=O)N[C@@H](Cc1c[nH]cn1)C(=O)NCC(=O)N[C@@H](Cc1ccc(O)cc1)C(=O)N[C@@H](CCCCN)C(=O)N[C@@H](CCCNC(=N)N)C(=O)N[C@@H](CCCCN)C(=O)N[C@@H](Cc1ccccc1)C(=O)N[C@@H](Cc1c[nH]cn1)C(=O)O`, the peptide concentration was 0.562 mg/mL (HPLC-UV; human saliva; 6 h, 37 °C, added: initial 1 mg/mL).
For `C=C(NC(=O)c1csc(-c2nc3c(cc2O)-c2nc(cs2)C(=O)NC(C(C)O)C(=O)NC(=C(C)OC)c2nc(cs2)C(=O)NC2c4nc(cs4)C(=O)NC(COC(=O)c4c5c6c(cccc6n4O)COC(=O)C(OC4CC(C)(O)C(N(C)C)C(C)O4)C2OC5)c2nc-3cs2)n1)C(N)=O` (stereo not shown), the MRT(0-t) was 389 min (ICR mice, Streptococcus pneumoniae ATCC 49169 infected, immunocompromised, blood; intravenous, 4 mg/kg/day three times daily).
For `COC1C=COC2(C)Oc3c(C)c(O)c4c(c3C2=O)C2=NC3(CCN(CC(C)C)CC3)NC2=C(NC(=O)C(C)=CC=CC(C)C(O)C(C)C(O)C(C)C(OC(=O)Nc2cccnn2)C1C)C4=O` (stereo not shown), the clearance was 2.27 mL/min/kg (CD-1 mouse female, plasma; intravenous, 5 mg/kg).
`Cc1noc(C)c1Cn1cc(N2C(=O)CN(Cc3cccc(OS(=O)(=O)O)c3)C2=O)cn1` has a plasma concentration of 2240 ng/mL (Sprague-Dawley rat, male; oral, 10 mg/kg of parent drug, 0.25 h).
For `CN1CCC[C@]1(C)/C=C/S(=O)(=O)NC(=O)Nc1c2c(cc3c1CCC3)CC=C2`, the AUC(0-tau) was 262 µg·h/mL (human, plasma; oral, 50 mg twice daily of parent drug, day 14, metabolite of dosed drug).
Under “long-term stability accuracy”, `CCn1c(=O)c(-c2cc(NC(=O)Nc3ccccc3)c(F)cc2Br)cc2cnc(N)cc21` is recorded as -0.53% (human plasma; 150 ng/mL, 1 months, -20 °C, low QC).
With `Cc1c(Cc2ccc(F)c(OC(C)C(=O)O)c2)c2ccc(C(=O)NC(C)c3ccc(C(C)(C)C)cc3)cc2n1CC(C)C` (stereo not shown) the half-life was 50 min (metabolic stability; mouse, liver microsomes).
The fluorescence lifetime of `CCCCN1C(=O)c2cccc3c(NCCCCCCCCN4CCOCC4)ccc(c23)C1=O` is reported as 8.4 ns (methanol).
`CN1C(=O)[C@@H](Cc2ccc(O)c(I)c2)NC(=O)CNC(=O)[C@H](Cc2ccc3ccccc3c2)NC(=O)[C@H](CCCNC(=N)N)NC(=O)[C@H]1CCCNC(=O)c1ccc(CNC(=O)CN2CCN(CC(=O)O)CCN(CC(=O)O)CCN(CC(=O)O)CC2)cc1` [lutetium-177 labelled]: “total absorbed dose” 0.049 mGy/MBq (1; human, extrapolated from mouse, osteogenic cells).
Under “urinary sodium excretion”, `CC(C)[C@H](NC(=O)[C@H](Cc1c[nH]c2ccccc12)NC(=O)[C@H](CCCNC(=N)N)NC(=O)[C@H](CCCNC(=N)N)NC(=O)[C@@H](NC(=O)[C@@H](NC(=O)[C@H](CCCNC(=N)N)NC(=O)[C@@H](NC(=O)[C@@H](NC(=O)[C@H](CCCNC(=N)N)NC(=O)[C@H](CCCNC(=N)N)NC(=O)[C@@H](NC(=O)[C@H](Cc1c[nH]c2ccccc12)NC(=O)[C@H](CCCNC(=N)N)NC(=O)[C@H](CCCNC(=N)N)NC(=O)[C@@H](NC(=O)[C@H](CCCNC(=N)N)NC(=O)[C@H](CCCNC(=N)N)NC(=O)[C@@H](NC(=O)[C@H](Cc1c[nH]c2ccccc12)NC(=O)[C@H](CCCNC(=N)N)NC(=O)[C@@H](N)CCCNC(=N)N)C(C)C)C(C)C)C(C)C)C(C)C)C(C)C)C(C)C)C(C)C)C(=O)N[C@@H](CCCNC(=N)N)C(=O)N[C@@H](CCCNC(=N)N)C(=O)O` is recorded as less than 16 µmol/day/g body weight (CD-1 mice; intravenous, 15 mg/kg, 6-24 h).
`O=C(CN1CCN(CC(=O)NCc2ncccc2O)CCN(CC(=O)NCc2ncccc2O)CCN(CC(=O)NCc2ncccc2O)CC1)NCc1ncccc1O.[177Lu+3]` gave a biodistribution of 0.014 ± 0.008 % injected dose/g (Sprague-Dawley rat, large intestine; intravenous, dose not given, 2 h).
`C=C[C@]1(C)C[C@@H](OC(=O)CSc2ccc(NC(=O)c3ccco3)cc2)[C@]2(C)[C@H](C)CC[C@]3(CCC(=O)[C@H]32)[C@@H](C)[C@@H]1O` has an absorption half-life of 4.5 min and 4.2 min (M. gallisepticum-infected chickens, plasma; intramuscular, 80 mg/kg single dose).
`[2H]C1([2H])CC[C@@H](C[C@@H](C#N)NC(=O)[C@@H]2[C@@H]3[C@H](CN2C(=O)[C@@H](NC(=O)C(F)F)C(C)(C)C)C3(C)C)C(=O)N1` gave an intrinsic clearance of 15.3 mL/min/kg (human liver microsomes; scaled to liver).
For `CCCCN1C(=O)c2cccc3c(NCCCCN4CCOCC4)ccc(c23)C1=O`, the absorption maximum was 441 nm (DMF).
`C/C(N)=N/C(=N\S(=O)(=O)c1ccc(C(F)(F)F)cc1)N1C[C@H](c2ccccc2)C(c2ccc(Cl)cc2)=N1` gave a Tmax of 15 min (male C57BL/6 mouse, kidney; intravenous, 10 mg/kg).
For `CCCCN1C(=O)c2cccc3c(NCCCCCCN4CCOCC4)ccc(c23)C1=O`, the absorption maximum was 429 nm (ethyl acetate).
The absorption maximum of `CCC1=[N+]2N=C(c3ccccc3)C(=O)O[B-]2(c2ccccc2)Oc2cc(N(CC)CC)ccc21` (stereo not shown) is reported as 472 nm (toluene).
The tracer uptake of `Cc1nc(N)nc2c1C(=O)N[C@@H](c1ccc(F)cc1-c1cccc(O[11CH3])n1)C2` is reported as 16.1 ± 6.5 %ID (ex vivo biodistribution; mice, U87 subcutaneous xenograft, muscle; 60 min post-injection, baseline, vehicle pre-treatment).
`CCCC[C@H](OC(C)=O)c1ccccc1C(=O)O` gave an AUC(0-t) of 0.361 ± 0.167 µg·h/mL (beagle dogs, both sexes, whole blood; intravenous, 0.5 mg/kg single dose).
The AUC(0-tau) of `CN1CCC[C@]1(C)/C=C/S(=O)(=O)NC(=O)Nc1c2c(cc3c1C(O)CC3)CCC2` (stereo partly shown) is reported as 108 µg·h/mL (human, plasma; oral, 50 mg twice daily of parent drug, day 14, metabolite of dosed drug).
`O=Cc1cc(C(F)(F)F)ccc1B(O)O`: “degradation rate constant” 0 h⁻¹ (chemical stability, HPLC-MS; borate buffered saline; pH 10.2, no N-acetyl-lysine).
With `CN(O)C(=O)CCC(=O)NCCCN(CCCCN(CCCNC(=O)CCC(=O)N(C)O)C(=O)CCC(=O)N(C)O)C(=O)CCC(=O)N(C)O.[89Zr]` the intact complex was 97.8 ± 1.1% (radio-TLC; aqueous buffer; 7 d, pH 7, 37 °C, 89Zr-labelled complex, added: DTPA 100-fold excess).
With `O=C(Nc1cnccc1-c1ccc([18F])cc1)c1ccnc(NC(=O)C2CC2)c1` the SUV was 3.9 (ex vivo gamma counting; GSK-3β transgenic mice, early-stage, urine; intravenous, 120 min, mean, no P-gp inhibitor).
`C#CCNC(=O)C(CC(C)(C)F)NC(c1ccc(-c2ccc(S(C)(=O)=O)cc2)cc1)C(F)(F)F` (stereo not shown): “GSH adduct formation” less than 1% (PBS; 100 µM, 23 h, pH 7.45, 37 °C, added: GSH 5 mM).
For `CCCCN1C(=O)c2cccc3c(NCCN4CCOCC4)ccc(c23)C1=O`, the absorption maximum was 426 nm (ethyl acetate).
The SUV of `O=C(Nc1cnccc1-c1ccc([18F])nc1)c1ccnc(NC(=O)C2CC2)c1` is reported as 0.676 (ex vivo gamma counting; FVB/NJ mice, both sexes, large intestine; intravenous, 120 min, mean, P-gp inhibitor pretreatment, added: tariquidar 15 mg/kg iv).
`COc1cccc(OC)c1-c1cc(C(=O)NC2(C(=O)O)C3CC4CC(C3)CC2C4)nn1-c1ccc(C(=O)NCCNC(=O)[C@H](CCCCNC(=O)[C@H](CC(C)C)NC(=O)C2OC2C(=O)O)NC(=O)CN2CCN(CC(=O)[O-])CCN(CC(=O)[O-])CCN(CC(=O)[O-])CC2)cc1C(C)C.[177Lu+3]` (mixture of isomers) gave a tumour-to-liver ratio of 5.74 (mouse, HT-29 xenograft; 24 h post injection, biodistribution; baseline: tumour over liver uptake).
For `CCCCN1C(=O)c2cccc3c(NCCCCCN4CCOCC4)ccc(c23)C1=O`, the absorption maximum was 426 nm (dioxane).
Under “share of subjects with TEAEs”, `CC(C)(O)c1ncc([S@](N)(=O)=NC(=O)Nc2c3c(cc4c2CCC4)CCC3)s1` is recorded as 83% (measured: all system organ classes; healthy human subjects; oral, 100 mg, fed).
For `COc1cccc(OC)c1-c1cc(C(=O)NC2(C(=O)O)C3CC4CC(C3)CC2C4)nn1-c1ccc(C(=O)N(C)CCOCCN(C)C(=O)[C@H](CCCCNC(=O)[C@H](CC(C)C)NC(=O)C2OC2C(=O)O)NC(=O)CN2CCN(CC(=O)[O-])CCN(CC(=O)[O-])CCN(CC(=O)[O-])CC2)cc1C(C)C.[177Lu+3]` (mixture of isomers), the tissue uptake was 6.5 %ID/g (mouse, HT-29 xenograft, HT-29 tumour; 4 h post injection).
`C=CC(=O)N1CCCC(n2c(=O)c3ncccc3n(Cc3ccc(Oc4ccccc4)cc3)c2=O)C1` (stereo not shown) gave a concentration of 21100 ng/mL (male BALB/c mouse, plasma; oral, 200 mg/kg, 1 h).
For `CN1CCC[C@]1(C)/C=C/S(=O)(=O)NC(=O)Nc1c2c(cc3c1CCC3)CCC2`, “subjects with adverse event” read 0% (measured: blood triglycerides increased, not related; human; oral, 12.5 mg twice daily, 14 days, multiple ascending dose).

Repeated from above:
Under “share of subjects with TEAEs”, `CC(C)(O)c1ncc([S@](N)(=O)=NC(=O)Nc2c3c(cc4c2CCC4)CCC3)s1` is recorded as 83% (measured: all system organ classes; healthy human subjects; oral, 100 mg, fed).
For `COc1cccc(OC)c1-c1cc(C(=O)NC2(C(=O)O)C3CC4CC(C3)CC2C4)nn1-c1ccc(C(=O)N(C)CCOCCN(C)C(=O)[C@H](CCCCNC(=O)[C@H](CC(C)C)NC(=O)C2OC2C(=O)O)NC(=O)CN2CCN(CC(=O)[O-])CCN(CC(=O)[O-])CCN(CC(=O)[O-])CC2)cc1C(C)C.[177Lu+3]` (mixture of isomers), the tissue uptake was 6.5 %ID/g (mouse, HT-29 xenograft, HT-29 tumour; 4 h post injection).
`C=CC(=O)N1CCCC(n2c(=O)c3ncccc3n(Cc3ccc(Oc4ccccc4)cc3)c2=O)C1` (stereo not shown) gave a concentration of 21100 ng/mL (male BALB/c mouse, plasma; oral, 200 mg/kg, 1 h).
